Experimental data gathered from unrelated publications.
Each numbered part is a random draw from the data of one study; scales do not carry over between parts.

Series 1
Target: Sal-like protein 4, full length isoform B (SALL4, Homo sapiens, UniProt Q9UJQ4-2, residues 1-616)
Technique: universal PBM
Form: double-stranded DNA, one strand shown
Medium: in vitro
Concentration: not given
Setting: 8-mer, flanks averaged, mean of replicates
Reading: higher = stronger binding
For `CTCGTCTA`, the E-score was 0.0229.
For `CGTACGGA`, the E-score was -0.0821.
With `AACTGAGC` the E-score was -0.276.
`CTTGCTAA` has an E-score of -0.0194.
With `AAACAAAT` the E-score was 0.299.
`AGCCGAGC` gave an E-score of -0.376.
For `CGTAATGC`, the E-score was 0.103.
For `AAGTACCG`, the E-score was 0.0138.
The E-score of `CATAGCGC` is reported as 0.0743.
The E-score of `ACCCCAGA` is reported as -0.194.
`ACTCGGAA` has an E-score of -0.0415.
The E-score of `CTGGTGAA` is reported as -0.104.
The E-score of `CAGCATCA` is reported as -0.0184.
For `ACACATCT`, the E-score was 0.0412.
`CTACATTA` gave an E-score of 0.175.
`CCTAGCGC` gave an E-score of -0.279.
With `CCGACCAG` the E-score was -0.361.
The E-score of `ACTCGGAT` is reported as -0.0791.
For `TCCGCACA`, the E-score was -0.0244.
For `ATGTCTAG`, the E-score was 0.22.
For `CGCCTCAC`, the E-score was -0.159.
The E-score of `ACGGCTTG` is reported as -0.214.
With `CCAGCACC` the E-score was -0.336.
With `ACCAAGCT` the E-score was 0.0282.
`AATATGGT` has an E-score of 0.271.

Series 2
Target: RNA binding protein fox-1 homolog 2, RRM domain, GST-SBP tag (RBFOX2, Homo sapiens, UniProt O43251-10, residues 100-194)
Technique: RNA Bind-n-Seq
Form: RNA
Medium: in vitro
Concentration: 365 nM
Setting: natural RNA segment, single round, ends assumed
Baseline: no-protein control
Reading: higher = stronger binding
Target sequence (chain): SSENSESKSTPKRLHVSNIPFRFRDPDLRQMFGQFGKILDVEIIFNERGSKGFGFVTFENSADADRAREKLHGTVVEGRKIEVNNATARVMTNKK
`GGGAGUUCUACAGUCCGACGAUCAGGCUGAAUGGGAGAGUCCUCCACAACUCCCUGUGUGCCUCAUGGAAAAUAAAGUUUUUUGCACCAUGCUGGUUCUGGACAUUCAGAGCUGUCUCCUGAGUCCUGAGCAGUGGAAUUCUCGGGUGCCAA` — result for “RBNS enrichment (R)”: 0.418.
For `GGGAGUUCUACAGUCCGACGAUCUUUGAGUGAGUCAGGGGAAACACCCUCUUCCUACUUACACUUGUCUCGCCCACCCCCCAUUCUCUCCUUGGUUUCUUGGCCCUUUACUGUGGCUGUACUUCAGAUCAUCAUGGAAUUCUCGGGUGCCAA`, “RBNS enrichment (R)” read 0.458.
For `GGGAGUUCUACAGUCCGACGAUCAGGUAGAGAGUGCUCCUGGUGGCCUGGCAGGUCUGGGCCCUUCUCUCCCUGCCCAGGUUGUCCCUGGAGGGCAGCCCUCACUCCCUUUGGGGGAGAGGCAGACAUUGCUGUGGAAUUCUCGGGUGCCAA`, “RBNS enrichment (R)” read 0.308.
Under “RBNS enrichment (R)”, `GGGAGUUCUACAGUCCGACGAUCGAAUACAGCGUCAGAAGGAUGCCAUAACCAUUCUGUUCCUUUACAGAACUAAAUUGCCGCAGACAGGAGUUAAAGUUUUAUAUUUUCCUGCUCAGUUAUCUAAUGUCUUAUGGAAUUCUCGGGUGCCAA` is recorded as 0.359.
For `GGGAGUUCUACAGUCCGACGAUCCAACAUGUAAAUAAUCUUUUAAGAGCCAGUUCUGAUGCUUUACAUUAUUGCUACUUGAUUUUGUUAUGCAAGUUAGAUUUCAGAAGAAUAGAUUUUAAAACACUUAACCAUGGAAUUCUCGGGUGCCAA`, “RBNS enrichment (R)” read 0.422.
`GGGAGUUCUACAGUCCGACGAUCGCCGCCUGGGGAGUGAGCCAGCCUGCAUCCCCGGCAGAGGAACUGGUGCCUGCCUUUGUCUGUGAGCUCAUUCCCACUGUUACCCUGAGCUGGCCCAAUGGAGCCUUACAUGGAAUUCUCGGGUGCCAA` — result for “RBNS enrichment (R)”: 2.63.
`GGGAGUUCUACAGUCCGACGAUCUUGGAAACCACCCAACAAAUAUUAGUAGCUGGAUAGCUACCUAUUUGUUGUUGAAUCCGGGUAUCCAGGCUGAGAAGGGAAGAAAAAUAGCCACUAACUCUGCAACAAUCUGGAAUUCUCGGGUGCCAA`: “RBNS enrichment (R)” 0.31.
`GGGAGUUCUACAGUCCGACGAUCGGAUGGGAGUCAGACUGGCUGAGGUUUCAAUUUUGCAUUCAUGGCCAGCCACCGUUCCAGGUCCUGUUGAGAUCAUCAUGUAACAGGACAACAAAGUCCCUGUCCUCAUGUGGAAUUCUCGGGUGCCAA`: “RBNS enrichment (R)” 0.359.
`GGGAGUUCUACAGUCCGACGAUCGGUUGGGAACAUAGCCAUGAGUGCCCCUCGUGGGUGGGGCGCCAGUCUGUCAUUGACCUCAUUGUGUCAGCACCUUCCCCUCAAGGAGGCUGACCCUGCCCUGCCAGCUGUGGAAUUCUCGGGUGCCAA`: “RBNS enrichment (R)” 0.423.
For `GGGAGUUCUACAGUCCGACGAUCUAUUUUUUUAUUCUAUGUGCACACAUACAGUAUACAUAUAUAUUUAUAUCACAUUUUACUGAACCAAAAAGUUGGGUUUCCAAUAAAAUACUUGUUUUUUAAUAACCGACUGGAAUUCUCGGGUGCCAA`, “RBNS enrichment (R)” read 0.462.
`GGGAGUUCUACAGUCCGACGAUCCCAAUAACUAAUUUUAAAUACACAUUGUCCUCUCGAUUUUUGGACCAAACAGACGCUCACAGUGGAGGCUUAUCAAGGGUUGCAUUGGGGAAGAAGCCUCUCCCUCUCUGUGGAAUUCUCGGGUGCCAA`: “RBNS enrichment (R)” 0.587.
`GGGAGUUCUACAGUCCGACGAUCGUCAGGUCCCCGAGUCAUUUCUGUAGUGAAGAGCAGAGUUCCGUGUCUACACUGGCAACUAGGAACUGGGGUGCUCUGCUCCCGUUUGCUCCUGGGAGGGGCGUUCUCCUUGGAAUUCUCGGGUGCCAA`: “RBNS enrichment (R)” 0.431.

Series 3
Target: Centromere-binding protein 1, full length, His-tagged (CBF1, Saccharomyces cerevisiae, UniProt P17106, residues 1-351)
UniProt P17106, sequence (whole entry, looked up): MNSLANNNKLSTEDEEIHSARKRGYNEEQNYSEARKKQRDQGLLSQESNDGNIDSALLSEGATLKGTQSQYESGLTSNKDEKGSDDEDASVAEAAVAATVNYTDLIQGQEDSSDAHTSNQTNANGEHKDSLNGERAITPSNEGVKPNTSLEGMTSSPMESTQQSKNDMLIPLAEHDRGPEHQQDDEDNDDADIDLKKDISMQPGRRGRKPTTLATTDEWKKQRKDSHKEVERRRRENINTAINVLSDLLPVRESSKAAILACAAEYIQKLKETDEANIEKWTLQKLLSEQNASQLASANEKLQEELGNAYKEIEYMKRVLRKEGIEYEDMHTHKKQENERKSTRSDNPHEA
Technique: competition protein-binding microarray
Form: double-stranded DNA, one strand shown
Medium: in vitro
Concentration: 2 µM
Setting: whole 60-bp probe, lowest competitor level
With: Pho4 competitor, 0.05 µM
Reading: higher = stronger binding
With `AAAGCGGTAATTTGTATTGTGGGTGCAGATATCTATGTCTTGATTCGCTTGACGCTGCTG` the fluorescence intensity was 78.4 a.u.
`TTATACGTATTACATCATGTGCTCCAGCCTTGTCAGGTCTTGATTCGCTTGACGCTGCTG` has a fluorescence intensity of 478 a.u.
With `GTCGCTGCGCGCGATCATGCGTCTACGCGCTTCTGTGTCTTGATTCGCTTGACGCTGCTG` the fluorescence intensity was 60.1 a.u.
For `AATTATCAGGGACCGGTCGTGCCGATAATGTCCTGCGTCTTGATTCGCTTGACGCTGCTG`, the fluorescence intensity was 62.4 a.u.
`CGTCCTAGCGATTGATAAGTGGGTGCCATGAGGAAGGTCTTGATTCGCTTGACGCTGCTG` has a fluorescence intensity of 71.6 a.u.
`TGCGCAACAACTTGCCGAGTGGGTGTATGTCTAGAAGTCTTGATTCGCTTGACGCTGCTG` gave a fluorescence intensity of 60.2 a.u.
`TGATGACGCCACCATCACGTTGCGACAGCGTCTGCTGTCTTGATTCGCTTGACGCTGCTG` has a fluorescence intensity of 161 a.u.
`ATCCTCCTTAGTGGGCATGTGCTCTAGGAATGCAGAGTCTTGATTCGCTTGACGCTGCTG` has a fluorescence intensity of 166 a.u.
With `TATTTTTTTTTTTTTTATTTTGGTAGAATAGATTACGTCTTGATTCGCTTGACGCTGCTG` the fluorescence intensity was 102 a.u.
The fluorescence intensity of `CTCGTTACTACCCATCACGTGTCGGATCCCTCGCGAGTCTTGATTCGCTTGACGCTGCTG` is reported as 3850 a.u.
`TGGTGGAGTTTTACCCACGTGATGGAAGACTCCTGGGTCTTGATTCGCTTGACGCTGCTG` has a fluorescence intensity of 3550 a.u.
The fluorescence intensity of `CTAACGAAGGTTTGCCGCGTGGGTGACAAGCCAAGTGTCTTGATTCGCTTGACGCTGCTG` is reported as 63.7 a.u.
`CTTCCTTCCAGAGCCCGCGTGCTAATGCAGAGTGGTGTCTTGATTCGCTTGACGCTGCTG` has a fluorescence intensity of 82.3 a.u.

Series 4
Target: Histone acetyltransferase KAT6A, winged helix 1, GST fusion (KAT6A, Homo sapiens, UniProt Q92794, residues 1-85)
Technique: protein binding microarray
Form: double-stranded DNA, one strand shown
Medium: in vitro
Concentration: not given
Setting: 8-mer, flanks averaged, mean of 2 arrays, mostly near background
Baseline: not given
Reading: higher = stronger binding
Construct (chain): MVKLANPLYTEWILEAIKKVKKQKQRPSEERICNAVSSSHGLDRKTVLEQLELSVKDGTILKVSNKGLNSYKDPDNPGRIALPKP
For `TCGGCGAA`, the E-score was 0.289.
`AGAGCTCT` gave an E-score of -0.084.
`AGGCAGCC` has an E-score of -0.102.
The E-score of `ATGCGGGC` is reported as 0.173.
For `ATCGTGCA`, the E-score was -0.178.
The E-score of `CACCGCTC` is reported as 0.169.
The E-score of `CTTAAGGA` is reported as -0.202.
`GCTTAAGC` has an E-score of 0.046.
With `GCGATACA` the E-score was -0.0133.
The E-score of `GCTGCAAA` is reported as -0.109.
`AAAATTCA` gave an E-score of -0.229.
The E-score of `ATATATGA` is reported as -0.201.
With `CCACCAAG` the E-score was -0.115.
With `AACATCAA` the E-score was -0.06.
The E-score of `ACATAAAC` is reported as -0.0828.
The E-score of `CGAGATAC` is reported as 0.0092.

A few entries again (series 1):
`CTTGCTAA` has an E-score of -0.0194.
The E-score of `CATAGCGC` is reported as 0.0743.
For `CGTAATGC`, the E-score was 0.103.
`AATATGGT` has an E-score of 0.271.
The E-score of `ACCCCAGA` is reported as -0.194.
For `AAGTACCG`, the E-score was 0.0138.
